Experimental data of several laboratories.
Numbered parts are unrelated; each lists some results of a single study. Several values in a cell are separate wells, animals, samples, runs or records.
Chain of UniProt P48729 (whole entry, looked up): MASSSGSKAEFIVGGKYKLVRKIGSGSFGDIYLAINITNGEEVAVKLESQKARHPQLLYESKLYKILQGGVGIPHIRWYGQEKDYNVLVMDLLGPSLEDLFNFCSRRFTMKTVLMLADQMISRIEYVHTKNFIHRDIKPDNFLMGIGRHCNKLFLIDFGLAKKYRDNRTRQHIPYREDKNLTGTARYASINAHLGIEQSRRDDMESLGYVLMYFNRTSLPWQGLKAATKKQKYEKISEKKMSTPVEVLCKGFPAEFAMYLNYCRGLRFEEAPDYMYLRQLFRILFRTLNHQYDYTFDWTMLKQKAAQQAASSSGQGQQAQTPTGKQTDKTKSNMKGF
Chain of UniProt P37173 (whole entry, looked up): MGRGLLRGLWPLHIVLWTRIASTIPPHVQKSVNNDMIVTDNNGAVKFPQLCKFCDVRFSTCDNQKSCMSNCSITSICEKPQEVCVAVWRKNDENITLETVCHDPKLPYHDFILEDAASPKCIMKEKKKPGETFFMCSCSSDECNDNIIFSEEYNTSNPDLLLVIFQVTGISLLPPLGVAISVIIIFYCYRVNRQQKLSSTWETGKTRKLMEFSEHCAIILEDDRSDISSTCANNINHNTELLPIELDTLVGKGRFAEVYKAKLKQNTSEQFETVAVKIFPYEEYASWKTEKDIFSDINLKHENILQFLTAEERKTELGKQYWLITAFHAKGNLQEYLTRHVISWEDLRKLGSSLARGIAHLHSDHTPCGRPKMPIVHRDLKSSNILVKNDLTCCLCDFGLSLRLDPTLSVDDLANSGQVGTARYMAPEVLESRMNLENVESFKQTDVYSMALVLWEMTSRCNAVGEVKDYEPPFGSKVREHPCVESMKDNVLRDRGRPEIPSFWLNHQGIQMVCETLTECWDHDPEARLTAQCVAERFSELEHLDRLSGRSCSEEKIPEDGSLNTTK
Chain of UniProt Q6ZWH5 (whole entry, looked up): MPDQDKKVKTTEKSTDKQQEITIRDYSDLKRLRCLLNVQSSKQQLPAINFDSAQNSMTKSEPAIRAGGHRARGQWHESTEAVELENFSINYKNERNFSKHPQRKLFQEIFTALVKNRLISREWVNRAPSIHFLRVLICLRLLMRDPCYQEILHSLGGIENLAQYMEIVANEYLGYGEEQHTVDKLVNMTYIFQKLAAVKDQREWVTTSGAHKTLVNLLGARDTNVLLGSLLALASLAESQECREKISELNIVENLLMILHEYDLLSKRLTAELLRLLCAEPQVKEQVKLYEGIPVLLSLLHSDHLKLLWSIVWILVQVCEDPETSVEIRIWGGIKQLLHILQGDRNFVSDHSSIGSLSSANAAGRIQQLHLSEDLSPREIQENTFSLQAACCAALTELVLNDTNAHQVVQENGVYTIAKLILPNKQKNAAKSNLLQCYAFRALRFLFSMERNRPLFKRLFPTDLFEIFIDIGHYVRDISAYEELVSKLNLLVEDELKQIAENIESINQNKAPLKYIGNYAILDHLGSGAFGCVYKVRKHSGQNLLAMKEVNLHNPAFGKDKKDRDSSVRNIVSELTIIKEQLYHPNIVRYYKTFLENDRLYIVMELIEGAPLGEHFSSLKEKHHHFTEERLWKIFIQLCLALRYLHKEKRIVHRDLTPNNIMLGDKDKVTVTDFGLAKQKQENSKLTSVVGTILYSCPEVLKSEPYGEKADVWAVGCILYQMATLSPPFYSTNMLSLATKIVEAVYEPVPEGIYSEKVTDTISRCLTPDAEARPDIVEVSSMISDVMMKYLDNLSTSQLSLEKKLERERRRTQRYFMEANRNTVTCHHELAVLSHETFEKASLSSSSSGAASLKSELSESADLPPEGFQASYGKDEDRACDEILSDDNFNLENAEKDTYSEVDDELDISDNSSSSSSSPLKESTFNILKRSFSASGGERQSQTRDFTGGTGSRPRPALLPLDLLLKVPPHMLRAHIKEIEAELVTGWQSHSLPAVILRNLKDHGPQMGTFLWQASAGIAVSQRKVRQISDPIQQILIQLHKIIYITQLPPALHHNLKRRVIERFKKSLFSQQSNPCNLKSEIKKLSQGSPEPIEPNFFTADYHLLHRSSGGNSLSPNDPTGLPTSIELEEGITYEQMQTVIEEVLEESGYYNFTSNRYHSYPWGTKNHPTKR

Set 1
Compound: Cc1ccc(O)c(C)c1-c1cnc2[nH]c(-c3cnc(N4CCC5(CC4)CC(N4CCN(c6ccc(N[C@H]7CCC(=O)NC7=O)cc6F)CC4)CO5)nc3)cc2c1C#N (single isomer, unassigned)
Medium: plasma
Route: oral
Measurement: half-life
male beagle dog; 5 mg/kg: 6.3 h
Sprague-Dawley rat, male; 20 mg/kg: 7.7 h
cynomolgus monkey, male; 10 mg/kg: 10.9 h
CD-1 mouse, female; 40 mg/kg: 3.2 h

Set 2
SMILES: CCC1(c2cccc(-c3cn(C)nc3C)c2)C2=C(Nc3n[nH]cc31)C(F)C(C)(C)CC2=O (single isomer, unassigned)
Concentration: 1 µM
Measurement: remaining binding
CSNK2A1 (Homo sapiens, UniProt P68400); kinase binding, KINOMEscan; baseline: DMSO control: 95%
CAMK4 (Homo sapiens, UniProt Q16566); binding, competition with immobilised ligand: 93%
GRK1 (Homo sapiens, UniProt Q15835); binding, competition with immobilised ligand: 100%
PAK3 (Homo sapiens, UniProt O75914); kinase binding, KINOMEscan; baseline: DMSO control: 100%
SIK3 (Homo sapiens, UniProt Q9Y2K2); kinase binding, KINOMEscan; baseline: DMSO control: 100%
FLT3 (Homo sapiens, UniProt P36888, D835Y); kinase binding, KINOMEscan; baseline: DMSO control: 100%
MET (Homo sapiens, UniProt P08581); kinase binding, KINOMEscan; baseline: DMSO control: 88%
ITK (Homo sapiens, UniProt Q08881); kinase binding, KINOMEscan; baseline: DMSO control: 100%
TGFBR2 (Homo sapiens, UniProt P37173); binding, competition with immobilised ligand: 100%
PIK3CA (Homo sapiens, UniProt P42336, E542K); kinase binding, KINOMEscan; baseline: DMSO control: 57%
MAPK11 (Homo sapiens, UniProt Q15759); kinase binding, KINOMEscan; baseline: DMSO control: 100%
CSNK1A1 (Homo sapiens, UniProt P48729); kinase binding, KINOMEscan; baseline: DMSO control: 100%
MAP4K4 (Homo sapiens, UniProt O95819); kinase binding, KINOMEscan; baseline: DMSO control: 87%
CDC42BPA (Homo sapiens, UniProt Q5VT25); binding, competition with immobilised ligand: 100%
NEK10 (Homo sapiens, UniProt Q6ZWH5); kinase binding, KINOMEscan; baseline: DMSO control: 100%
WNK2 (Homo sapiens, UniProt Q9Y3S1); binding, competition with immobilised ligand: 100%
FLT3 (Homo sapiens, UniProt P36888, D835H); binding, competition with immobilised ligand: 100%
MERTK (Homo sapiens, UniProt Q12866); kinase binding, KINOMEscan; baseline: DMSO control: 100%

Set 3
SMILES: NC/C(=C\F)COc1cccc(Cn2c(=S)[nH]c(=O)c3[nH]ccc32)c1
Measurement: inhibition
MPO: Myeloperoxidase (MPO, Homo sapiens, UniProt P05164)
Chain of UniProt P05164 (whole entry, looked up): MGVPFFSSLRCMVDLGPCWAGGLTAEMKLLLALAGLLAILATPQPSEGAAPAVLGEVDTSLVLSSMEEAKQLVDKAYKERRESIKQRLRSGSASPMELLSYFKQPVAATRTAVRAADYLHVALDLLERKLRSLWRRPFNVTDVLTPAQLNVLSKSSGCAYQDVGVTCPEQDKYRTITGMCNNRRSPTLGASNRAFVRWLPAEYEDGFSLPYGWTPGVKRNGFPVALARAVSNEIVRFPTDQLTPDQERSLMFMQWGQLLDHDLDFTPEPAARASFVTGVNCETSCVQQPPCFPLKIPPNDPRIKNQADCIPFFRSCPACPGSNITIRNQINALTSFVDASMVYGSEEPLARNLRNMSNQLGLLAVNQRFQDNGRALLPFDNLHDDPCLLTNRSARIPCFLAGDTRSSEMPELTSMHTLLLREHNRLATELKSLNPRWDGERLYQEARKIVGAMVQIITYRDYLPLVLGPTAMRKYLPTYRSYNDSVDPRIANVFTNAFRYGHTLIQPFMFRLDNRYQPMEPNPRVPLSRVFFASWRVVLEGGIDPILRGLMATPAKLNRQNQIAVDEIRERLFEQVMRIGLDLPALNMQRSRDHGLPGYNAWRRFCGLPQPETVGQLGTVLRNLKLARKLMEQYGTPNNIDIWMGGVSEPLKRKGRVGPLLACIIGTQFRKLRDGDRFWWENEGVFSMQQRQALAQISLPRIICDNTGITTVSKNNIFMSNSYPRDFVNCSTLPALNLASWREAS
AOC3: Amine oxidase [copper-containing] 3 (AOC3, Homo sapiens, UniProt Q16853)
Chain of UniProt Q16853 (whole entry, looked up): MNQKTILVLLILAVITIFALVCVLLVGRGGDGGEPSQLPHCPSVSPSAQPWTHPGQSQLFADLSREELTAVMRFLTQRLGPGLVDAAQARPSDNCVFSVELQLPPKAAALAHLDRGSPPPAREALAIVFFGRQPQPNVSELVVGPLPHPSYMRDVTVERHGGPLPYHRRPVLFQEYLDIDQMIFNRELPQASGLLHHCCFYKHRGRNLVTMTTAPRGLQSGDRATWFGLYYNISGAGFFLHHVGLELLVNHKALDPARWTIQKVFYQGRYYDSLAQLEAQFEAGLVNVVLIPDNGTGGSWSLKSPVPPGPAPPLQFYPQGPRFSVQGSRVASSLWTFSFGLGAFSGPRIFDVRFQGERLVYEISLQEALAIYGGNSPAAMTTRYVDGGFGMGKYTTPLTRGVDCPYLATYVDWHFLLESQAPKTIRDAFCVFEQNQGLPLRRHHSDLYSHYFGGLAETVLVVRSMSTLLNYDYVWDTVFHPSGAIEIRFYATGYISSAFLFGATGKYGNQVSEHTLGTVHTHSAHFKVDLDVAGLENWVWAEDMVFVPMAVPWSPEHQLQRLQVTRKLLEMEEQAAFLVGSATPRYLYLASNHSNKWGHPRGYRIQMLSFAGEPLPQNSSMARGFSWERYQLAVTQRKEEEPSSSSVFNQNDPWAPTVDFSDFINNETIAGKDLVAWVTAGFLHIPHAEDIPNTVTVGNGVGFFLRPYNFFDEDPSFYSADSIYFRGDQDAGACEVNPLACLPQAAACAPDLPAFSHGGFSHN
MPO; enzyme activity, inhibitor, fluorescence; 6.9 nM: 26% and 44.2% and 24.6%
AOC3; enzyme activity, inhibitor, fluorescence; 1.111 µM: 99.6% and 99.3% and 99.8% and 99.4% and 99.9% and 97.9%
MPO; Amplex Red; 0.0206 µM: 52.7% and 71.6% and 47%
AOC3; enzyme activity, inhibitor, fluorescence; 0.1235 µM: 97.6% and 95.9% and 97.9% and 88% and 97.4% and 94.4%
MPO; enzyme activity, inhibitor, fluorescence; 61.7 nM: 83.2% and 83.3% and 95.2%
MPO; enzyme activity, inhibitor, fluorescence; 1.111 µM: 98.8% and 99.2% and 99.1%
MPO; enzyme activity, inhibitor, fluorescence; 0.1852 µM: 96.2% and 98.9% and 97.2%

Set 4
SMILES: C[C@@H]1CN(c2ccc(-c3cc(C(=O)NCCOCCOCCOCCOCCOCCOCCNC(=O)/C=C/c4[nH]cc(C(=O)N[C@@H](CC(N)=O)c5ccc(F)c(Cl)c5)c4-c4ccc(Cl)cc4F)ccc3F)cc2NC(=O)c2ccc(F)cc2C(F)(F)F)C[C@H](C)N1C
Effect on: thermal unfolding
Technique: differential scanning fluorimetry
Concentration: 5.5 µM
Direction: higher = more unfolded
Measurement: SYPRO Orange fluorescence
DCAF1: DDB1- and CUL4-associated factor 1 (DCAF1, Homo sapiens, UniProt Q9Y4B6)
Chain of UniProt Q9Y4B6 (whole entry, looked up): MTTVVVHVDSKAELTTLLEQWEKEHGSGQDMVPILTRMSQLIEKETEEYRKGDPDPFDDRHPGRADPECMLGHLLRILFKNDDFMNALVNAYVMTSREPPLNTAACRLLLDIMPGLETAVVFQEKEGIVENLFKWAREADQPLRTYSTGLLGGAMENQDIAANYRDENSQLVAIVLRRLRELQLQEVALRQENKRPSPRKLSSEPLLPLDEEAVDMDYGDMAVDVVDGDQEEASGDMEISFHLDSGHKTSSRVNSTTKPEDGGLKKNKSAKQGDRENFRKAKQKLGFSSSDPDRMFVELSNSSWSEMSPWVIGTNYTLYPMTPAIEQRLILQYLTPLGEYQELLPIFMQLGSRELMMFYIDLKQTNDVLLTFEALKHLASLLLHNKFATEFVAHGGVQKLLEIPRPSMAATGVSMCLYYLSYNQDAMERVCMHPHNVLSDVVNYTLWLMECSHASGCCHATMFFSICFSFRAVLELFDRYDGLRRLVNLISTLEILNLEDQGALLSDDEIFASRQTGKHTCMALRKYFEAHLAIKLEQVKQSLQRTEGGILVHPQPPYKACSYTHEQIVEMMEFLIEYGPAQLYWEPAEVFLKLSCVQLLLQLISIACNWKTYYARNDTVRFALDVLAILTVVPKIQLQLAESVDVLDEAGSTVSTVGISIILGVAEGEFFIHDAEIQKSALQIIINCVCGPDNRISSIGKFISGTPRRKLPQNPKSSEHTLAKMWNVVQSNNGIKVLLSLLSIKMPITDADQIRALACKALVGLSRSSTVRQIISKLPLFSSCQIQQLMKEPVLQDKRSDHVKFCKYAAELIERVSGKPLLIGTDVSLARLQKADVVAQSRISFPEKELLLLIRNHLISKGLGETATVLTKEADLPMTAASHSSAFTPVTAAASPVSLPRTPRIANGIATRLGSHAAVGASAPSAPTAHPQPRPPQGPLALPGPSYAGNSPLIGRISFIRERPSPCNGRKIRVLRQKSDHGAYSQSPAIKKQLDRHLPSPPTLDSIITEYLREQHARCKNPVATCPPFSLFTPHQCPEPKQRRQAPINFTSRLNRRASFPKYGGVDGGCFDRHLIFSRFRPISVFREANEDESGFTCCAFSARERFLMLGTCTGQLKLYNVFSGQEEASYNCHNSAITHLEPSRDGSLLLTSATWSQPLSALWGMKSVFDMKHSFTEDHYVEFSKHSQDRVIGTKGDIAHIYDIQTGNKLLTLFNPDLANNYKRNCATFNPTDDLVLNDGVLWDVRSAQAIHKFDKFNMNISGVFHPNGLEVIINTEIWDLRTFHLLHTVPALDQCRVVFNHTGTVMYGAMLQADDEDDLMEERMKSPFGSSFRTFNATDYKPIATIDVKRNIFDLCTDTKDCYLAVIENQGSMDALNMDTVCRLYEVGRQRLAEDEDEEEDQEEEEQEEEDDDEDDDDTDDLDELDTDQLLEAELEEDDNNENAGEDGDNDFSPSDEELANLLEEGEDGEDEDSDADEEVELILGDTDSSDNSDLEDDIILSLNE
WDR5: WD repeat-containing protein 5 (WDR5, Homo sapiens, UniProt P61964)
DCAF1; 74.81 °C: 43900 a.u.
DCAF1; 45.8 °C: 14800 a.u.
WDR5; 40.4 °C: 14200 a.u.
DCAF1; 81.01 °C: 39300 a.u.
DCAF1; 32.4 °C: 9100 a.u.
DCAF1; 43.8 °C: 14000 a.u.
WDR5; 55.21 °C: 16700 a.u.
DCAF1; 73.81 °C: 45000 a.u.
DCAF1; 82.01 °C: 38500 a.u.
DCAF1; 73.41 °C: 45400 a.u.
WDR5; 85.21 °C: 61800 a.u.

Repeated from above (set 3):
MPO; Amplex Red; 0.0206 µM: 52.7% and 71.6% and 47%
AOC3; enzyme activity, inhibitor, fluorescence; 1.111 µM: 99.6% and 99.3% and 99.8% and 99.4% and 99.9% and 97.9%
MPO; enzyme activity, inhibitor, fluorescence; 0.1852 µM: 96.2% and 98.9% and 97.2%
MPO; enzyme activity, inhibitor, fluorescence; 61.7 nM: 83.2% and 83.3% and 95.2%
AOC3; enzyme activity, inhibitor, fluorescence; 0.1235 µM: 97.6% and 95.9% and 97.9% and 88% and 97.4% and 94.4%
MPO; enzyme activity, inhibitor, fluorescence; 1.111 µM: 98.8% and 99.2% and 99.1%
